Results gathered from unrelated publications.
Every numbered part comes from another study and shows a few of its results, in no order. Positions count from the first letter of the parent shown.
UniProt P42679, sequence (whole entry, looked up): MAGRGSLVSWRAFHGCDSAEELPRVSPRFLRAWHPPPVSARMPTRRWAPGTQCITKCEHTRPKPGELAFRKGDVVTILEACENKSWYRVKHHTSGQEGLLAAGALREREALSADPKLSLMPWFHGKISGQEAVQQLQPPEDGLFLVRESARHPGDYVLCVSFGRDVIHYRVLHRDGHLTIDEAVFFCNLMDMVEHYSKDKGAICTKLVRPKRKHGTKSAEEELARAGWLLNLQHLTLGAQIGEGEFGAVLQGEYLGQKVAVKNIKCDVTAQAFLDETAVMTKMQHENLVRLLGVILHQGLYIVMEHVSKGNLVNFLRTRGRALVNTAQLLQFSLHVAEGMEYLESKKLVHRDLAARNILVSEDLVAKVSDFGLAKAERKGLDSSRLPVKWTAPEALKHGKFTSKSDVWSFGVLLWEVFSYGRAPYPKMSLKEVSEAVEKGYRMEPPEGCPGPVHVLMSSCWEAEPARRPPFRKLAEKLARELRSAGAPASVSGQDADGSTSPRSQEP
UniProt O00141, sequence (whole entry, looked up): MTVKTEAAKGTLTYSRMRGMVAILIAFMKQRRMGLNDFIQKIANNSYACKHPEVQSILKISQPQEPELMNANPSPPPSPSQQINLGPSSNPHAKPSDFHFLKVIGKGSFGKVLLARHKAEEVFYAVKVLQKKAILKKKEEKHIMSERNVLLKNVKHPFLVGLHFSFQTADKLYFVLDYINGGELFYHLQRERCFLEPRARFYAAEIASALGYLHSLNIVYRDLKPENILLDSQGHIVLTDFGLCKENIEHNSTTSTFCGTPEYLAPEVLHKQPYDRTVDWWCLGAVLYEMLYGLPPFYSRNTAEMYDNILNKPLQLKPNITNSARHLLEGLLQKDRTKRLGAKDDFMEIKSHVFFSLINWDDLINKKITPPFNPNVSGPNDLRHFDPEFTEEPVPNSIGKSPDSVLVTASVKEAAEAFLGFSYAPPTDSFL
UniProt P35590, sequence (whole entry, looked up): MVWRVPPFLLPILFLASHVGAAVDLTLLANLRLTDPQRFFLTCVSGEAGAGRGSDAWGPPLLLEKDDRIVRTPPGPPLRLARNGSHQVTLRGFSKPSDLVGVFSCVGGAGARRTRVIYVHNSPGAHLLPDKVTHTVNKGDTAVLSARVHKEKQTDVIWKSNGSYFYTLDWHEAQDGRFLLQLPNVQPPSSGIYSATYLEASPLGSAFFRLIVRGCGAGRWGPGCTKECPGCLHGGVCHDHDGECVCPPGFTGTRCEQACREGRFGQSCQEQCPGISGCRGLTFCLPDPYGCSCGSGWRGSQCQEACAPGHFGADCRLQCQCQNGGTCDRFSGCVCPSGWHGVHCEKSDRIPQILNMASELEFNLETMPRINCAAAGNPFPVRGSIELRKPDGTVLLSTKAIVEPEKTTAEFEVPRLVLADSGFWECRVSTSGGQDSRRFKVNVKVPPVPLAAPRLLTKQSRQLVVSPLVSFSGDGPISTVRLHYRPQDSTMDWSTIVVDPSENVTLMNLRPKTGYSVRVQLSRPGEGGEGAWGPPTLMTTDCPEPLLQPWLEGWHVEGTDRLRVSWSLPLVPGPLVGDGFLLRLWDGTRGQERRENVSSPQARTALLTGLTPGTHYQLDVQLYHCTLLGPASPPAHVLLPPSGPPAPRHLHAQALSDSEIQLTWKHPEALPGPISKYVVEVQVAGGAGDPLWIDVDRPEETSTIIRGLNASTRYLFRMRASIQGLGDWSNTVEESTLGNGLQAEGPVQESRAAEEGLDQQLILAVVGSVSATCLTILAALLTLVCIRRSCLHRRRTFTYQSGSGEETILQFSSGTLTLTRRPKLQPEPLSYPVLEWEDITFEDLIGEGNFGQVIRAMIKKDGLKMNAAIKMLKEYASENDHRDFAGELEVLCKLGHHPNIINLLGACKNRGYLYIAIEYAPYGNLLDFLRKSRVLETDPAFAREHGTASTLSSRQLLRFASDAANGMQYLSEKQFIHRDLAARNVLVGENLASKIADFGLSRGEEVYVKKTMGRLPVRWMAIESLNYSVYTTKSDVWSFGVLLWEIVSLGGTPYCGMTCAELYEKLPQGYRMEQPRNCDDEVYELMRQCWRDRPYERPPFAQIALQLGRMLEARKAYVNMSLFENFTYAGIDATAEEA
UniProt Q9UK32, sequence (whole entry, looked up): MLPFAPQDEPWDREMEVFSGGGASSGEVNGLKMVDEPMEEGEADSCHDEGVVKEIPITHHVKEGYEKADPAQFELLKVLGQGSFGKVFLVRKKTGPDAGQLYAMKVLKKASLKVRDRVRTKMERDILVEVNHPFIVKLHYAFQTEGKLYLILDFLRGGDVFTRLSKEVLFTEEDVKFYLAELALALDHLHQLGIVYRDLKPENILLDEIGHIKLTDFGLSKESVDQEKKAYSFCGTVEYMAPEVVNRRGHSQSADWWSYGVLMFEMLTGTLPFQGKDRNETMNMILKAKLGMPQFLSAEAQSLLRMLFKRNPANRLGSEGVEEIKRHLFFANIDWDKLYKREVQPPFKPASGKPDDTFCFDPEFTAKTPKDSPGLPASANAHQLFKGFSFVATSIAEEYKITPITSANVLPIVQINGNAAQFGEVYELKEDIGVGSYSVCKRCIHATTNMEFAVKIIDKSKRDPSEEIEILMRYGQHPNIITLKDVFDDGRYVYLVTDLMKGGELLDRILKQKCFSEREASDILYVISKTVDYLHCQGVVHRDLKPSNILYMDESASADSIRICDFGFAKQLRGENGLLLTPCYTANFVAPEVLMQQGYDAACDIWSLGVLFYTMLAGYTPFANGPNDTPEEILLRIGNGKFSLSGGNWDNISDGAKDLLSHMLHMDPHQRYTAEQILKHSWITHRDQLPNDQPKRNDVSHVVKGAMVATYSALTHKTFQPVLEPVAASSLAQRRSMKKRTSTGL
UniProt P49841, sequence (whole entry, looked up): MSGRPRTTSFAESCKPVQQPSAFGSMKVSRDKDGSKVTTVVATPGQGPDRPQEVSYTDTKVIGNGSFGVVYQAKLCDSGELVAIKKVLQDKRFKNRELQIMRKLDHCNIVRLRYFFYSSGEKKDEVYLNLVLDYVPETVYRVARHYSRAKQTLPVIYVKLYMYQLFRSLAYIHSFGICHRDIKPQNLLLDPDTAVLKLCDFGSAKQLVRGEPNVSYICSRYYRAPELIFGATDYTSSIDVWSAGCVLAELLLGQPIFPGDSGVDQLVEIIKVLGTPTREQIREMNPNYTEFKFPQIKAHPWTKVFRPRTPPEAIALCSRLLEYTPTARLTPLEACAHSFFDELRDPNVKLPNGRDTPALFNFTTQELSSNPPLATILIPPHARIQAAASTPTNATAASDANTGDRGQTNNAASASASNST

Block 1
Target: 5-hydroxytryptamine receptor 2C (HTR2C, Homo sapiens, UniProt P28335)
UniProt P28335, sequence (whole entry, looked up): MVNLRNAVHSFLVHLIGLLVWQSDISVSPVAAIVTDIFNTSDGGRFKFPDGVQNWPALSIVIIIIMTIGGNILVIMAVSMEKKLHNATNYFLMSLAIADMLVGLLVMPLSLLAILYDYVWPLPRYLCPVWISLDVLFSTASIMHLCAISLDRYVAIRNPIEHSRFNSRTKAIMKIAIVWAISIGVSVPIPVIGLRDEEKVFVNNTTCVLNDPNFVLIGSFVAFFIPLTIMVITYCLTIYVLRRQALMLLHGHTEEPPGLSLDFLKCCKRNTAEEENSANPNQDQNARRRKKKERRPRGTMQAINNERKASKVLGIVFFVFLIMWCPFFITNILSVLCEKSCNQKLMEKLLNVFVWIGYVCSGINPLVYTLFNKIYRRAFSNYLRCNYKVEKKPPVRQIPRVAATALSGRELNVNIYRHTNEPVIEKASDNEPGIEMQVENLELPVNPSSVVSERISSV
Effect on: ligand displacement
Concentration: 10 µM
Quantity: inhibition
CN1C(=O)[C@@H](N2CCc3cn(Cc4ccccc4)nc3C2=O)COc2ccccc21: -2.89%
CO[C@H]1CC[C@H](CNc2ccc(S(=O)(=O)NC(=O)c3ccc(N4CCN(CC5=C(c6ccc(Cl)cc6)CC(C)(C)CC5)CC4)cc3Oc3cnc4[nH]ccc4c3)cc2[N+](=O)[O-])CC1: -4.69%
Nc1nc(NCc2ccccc2)nc(-c2ccccc2CO)n1: 9.32%
CCOc1ccc(S(=O)(=O)Nc2ccc(Cl)cc2C#Cc2cnc(C(=O)O)cc2OC)c2ncccc12: 24.4%

Block 2
Target: vanadate, free oxyanion
Method: microfluidic competitive inhibition
Medium: in vitro, cell-free expressed
Concentration: not given
Notes: derived from inhibition constants, unchanged parent 676 nM
Reading: lower = stronger binding
Quantity: oxyanion analog dissociation constant
Starting sequence: PafA, mature enzyme, eGFP fusion (Elizabethkingia meningoseptica, UniProt Q9KJX5); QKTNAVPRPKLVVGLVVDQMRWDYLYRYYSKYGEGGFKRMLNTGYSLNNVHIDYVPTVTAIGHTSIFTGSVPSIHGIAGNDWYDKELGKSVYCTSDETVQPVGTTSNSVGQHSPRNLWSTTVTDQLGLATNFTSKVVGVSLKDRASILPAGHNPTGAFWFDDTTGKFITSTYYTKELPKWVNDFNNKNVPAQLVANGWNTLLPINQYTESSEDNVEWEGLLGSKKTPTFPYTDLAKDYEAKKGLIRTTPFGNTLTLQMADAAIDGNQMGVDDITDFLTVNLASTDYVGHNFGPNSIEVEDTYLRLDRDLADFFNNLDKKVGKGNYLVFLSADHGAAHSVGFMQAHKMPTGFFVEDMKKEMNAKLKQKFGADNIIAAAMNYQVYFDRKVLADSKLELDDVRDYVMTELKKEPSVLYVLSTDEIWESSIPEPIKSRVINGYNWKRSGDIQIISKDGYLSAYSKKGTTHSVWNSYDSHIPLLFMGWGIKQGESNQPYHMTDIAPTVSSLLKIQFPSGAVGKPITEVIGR
M496V: 743 nM
R386G: 747 nM
A129V: 547 nM
S490G: 723 nM

Block 3
Compound: COc1ccc2[nH]c3c4[nH]c5ccc(OC)cc5c4c4c(c3c2c1)C(=O)NC4=O
Effect on: binding
Concentration: 1 µM
Quantity: remaining binding
TIE1 (Homo sapiens, UniProt P35590); competition with immobilised ligand: 100%
MATK (Homo sapiens, UniProt P42679): 93%
SGK1 (Homo sapiens, UniProt O00141): 6.8%
PLK4 (Homo sapiens, UniProt O00444); competition with immobilised ligand: 1.4%
Ribosomal protein S6 kinase alpha-6, N-terminal kinase domain (RPS6KA6, Homo sapiens, UniProt Q9UK32); competition with immobilised ligand: 5.8%
FLT3 (Homo sapiens, UniProt P36888, K663Q): 9.7%
EPHA6 (Homo sapiens, UniProt Q9UF33); competition with immobilised ligand: 88%
CDK14 (Homo sapiens, UniProt O94921); competition with immobilised ligand: 85%

Mixed results
O=C1Cc2c([nH]c3ccc([N+](=O)[O-])cc23)-c2ccccc2N1  remaining signal (Glycogen synthase kinase-3 beta (GSK3B, Homo sapiens, UniProt P49841); cell-free assay; 0.5 µM): 2.68%

Repeated from above (block 3):
EPHA6 (Homo sapiens, UniProt Q9UF33); competition with immobilised ligand: 88%
CDK14 (Homo sapiens, UniProt O94921); competition with immobilised ligand: 85%
